Measurements from different studies.
Compare with care: the assays were run in different laboratories. Numbers after ± are the reported error.

| Structure (SMILES) | assay | system | setting | how to read | measurement | result |
| --- | --- | --- | --- | --- | --- | --- |
| CCC(C)(c1ccc(O)cc1)c1ccc(O)cc1 | – | octanol/water | – | – | log D octanol/water | 4.13 |
| COc1ccnc(C(=O)N[C@H]2COC(=O)[C@H](Cc3ccccc3)[C@@H](OC(=O)C(C)C)[C@H](C)OC2=O)c1OCOC(=O)C(C)C | – | – | pH 9, 20 °C | – | log Kow | 4.3 |
| CC[C@H](C)[C@H](NC(=O)[C@H](CCCNC(=N)N)NC(=O)[C@H](CCC(=O)O)NC(C)=O)C(=O)N[C@H]1CSSC[C@@H](C(=O)N[C@H](C(N)=O)[C@@H](C)O)NC(=O)[C@H](CCCNC(=N)N)NC(=O)[C@H](Cc2c[nH]cn2)NC(=O)[C@H](Cc2cccc3ccccc23)NC(=O)CNC(=O)[C@H](Cc2c[nH]c3ccccc23)NC(=O)[C@H](CC(=O)O)NC(=O)[C@H](CCC(N)=O)NC(=O)[C@H](Cc2c[nH]c3ccccc23)NC(=O)[C@H](C(C)C)NC1=O | isocratic RP-HPLC | C18 column | pH 7.4, 25 °C, elution method 2 | higher = more lipophilic | log retention factor | 0.122 |
| c1cc2ccc3ccc4ccc5cccc6c(c1)c2c3c4c56 | – | fresh water | 12 (unit not given), 20 °C, SSP sampler, 100 µm | – | log K(PDMS-water) | 5.19 ± 0.15 |
| COc1cccc2c1[n+]([O-])c1cccc(OC(=O)N3CCCC3)c1[n+]2[O-] | PAMPA | artificial membrane in PBS | 50 µM, 5 h | – | log effective permeability | -5.1 |
| CN1CC[C@]23c4c5ccc(O)c4O[C@H]2[C@@H](O)C=C[C@@]3(O)[C@H]1C5 | – | – | – | – | log tautomerization constant | 0.41 |
| O=C(Oc1cccc2c1[n+]([O-])c1cccc(O)c1[n+]2[O-])N1CCCC1 | PAMPA | artificial membrane in PBS | 50 µM, 5 h | – | log effective permeability | -4.74 |
| CC[C@H](C)[C@H](NC(C)=O)C(=O)N[C@H]1CSSC[C@@H](C(=O)N[C@H](C(N)=O)[C@@H](C)O)NC(=O)[C@H](CCCNC(=N)N)NC(=O)[C@H](Cc2c[nH]cn2)NC(=O)[C@H](C)NC(=O)CNC(=O)[C@H](Cc2c[nH]c3ccccc23)NC(=O)[C@H](CC(=O)O)NC(=O)[C@H](CCC(N)=O)NC(=O)[C@H](Cc2cn(C)c3ccccc23)NC(=O)[C@H](C(C)C)NC1=O | isocratic RP-HPLC, C18 | 32% acetonitrile, phosphate pH 7.4, 1% TFA | 25 °C | – | log retention factor | 0.263 |
| CN1CCN(C(=O)Oc2cccc3c2[n+]([O-])c2ccccc2[n+]3[O-])CC1 | PAMPA | artificial membrane in PBS | 50 µM, 5 h | – | log effective permeability | -4.85 |
| CC(=O)N[C@@H](CC(N)=O)C(=O)N[C@@H](CCCNC(=N)N)C(=O)N[C@@H](CC(C)C)C(=O)N[C@H]1CSSC[C@@H](C(=O)N[C@H](C(N)=O)[C@@H](C)O)NC(=O)[C@H](CCCNC(=N)N)NC(=O)[C@H](Cc2c[nH]cn2)NC(=O)[C@H](C)NC(=O)CNC(=O)[C@H](Cc2c[nH]c3ccccc23)NC(=O)[C@H](CC(=O)O)NC(=O)[C@H](CCC(N)=O)NC(=O)[C@H](Cc2c[nH]c3ccccc23)NC(=O)[C@H](C(C)C)NC1=O | isocratic RP-HPLC | C18 column | pH 7.4, 25 °C, elution method 2 | higher = more lipophilic | log retention factor | -0.267 |
| Clc1ccc(-c2ccc(Cl)c(Cl)c2)cc1Cl | – | fresh water | 20 °C, SSP sampler, 100 µm | – | log K(PDMS-water) | 5.44 ± 0.04 |
| COc1cccc2c1[n+]([O-])c1cccc(O)c1[n+]2[O-] | PAMPA | artificial membrane in PBS | 50 µM, 5 h | – | log effective permeability | -4.94 |
| CN1CC[C@]23c4c5ccc(O)c4O[C@H]2[C@@H](O)CC[C@H]3[C@H]1C5 | – | – | – | – | log tautomerization constant | 0 |
| C=CC[C@@]1(C)NC(=O)CNC(=O)[C@H](Cc2c[nH]c3ccccc23)NC(=O)[C@H](CC(=O)O)NC(=O)[C@H](CCC(N)=O)NC(=O)[C@H](Cc2c[nH]c3ccccc23)NC(=O)[C@H](C(C)C)NC(=O)[C@@H](NC(=O)[C@@H](NC(C)=O)[C@@H](C)CC)CSSC[C@@H](C(=O)N[C@H](C(N)=O)[C@@H](C)O)NC(=O)[C@H](CCCNC(=N)N)NC(=O)[C@H](Cc2c[nH]cn2)NC1=O | isocratic RP-HPLC | C18 column | pH 7.4, 25 °C, elution method 2 | higher = more lipophilic | log retention factor | 0.136 |
| CCOP(=S)(OCC)Oc1cc(C)nc(C(C)C)n1 | SPME sorption isotherm | PBS | – | – | log Freundlich coefficient | 2.58 |
| c1ccc2c(c1)cc1ccc3cccc4ccc2c1c34 | – | fresh water | 12 (unit not given), 20 °C, S30-2 sampler, 30 µm | – | log K(PDMS-water) | 5.24 ± 0.03 |
| CC(C)c1ccc(NC(=O)N(C)C)cc1 | SPME sorption isotherm | PBS | – | – | log Freundlich coefficient | 2.36 |

| Structure (SMILES) | assay | system | setting | how to read | measurement | result |
| --- | --- | --- | --- | --- | --- | --- |
| CN1CCN(C(=O)Oc2cccc3c2[n+]([O-])c2cc(Br)c(Br)cc2[n+]3[O-])CC1 | PAMPA | artificial membrane in PBS | 50 µM, 5 h | – | log effective permeability | -4.88 |
| CC(=O)N[C@@H](CC(N)=O)C(=O)N[C@@H](CC(N)=O)C(=O)N[C@@H](CC(C)C)C(=O)N[C@H]1CSSC[C@@H](C(=O)N[C@H](C(N)=O)[C@@H](C)O)NC(=O)[C@H](CCCNC(=N)N)NC(=O)[C@H](Cc2c[nH]cn2)NC(=O)[C@H](Cc2cccc3ccccc23)NC(=O)CNC(=O)[C@H](Cc2c[nH]c3ccccc23)NC(=O)[C@H](CC(=O)O)NC(=O)[C@H](CCC(N)=O)NC(=O)[C@H](Cc2cccc3ccccc23)NC(=O)[C@H](C(C)C)NC1=O | isocratic RP-HPLC | C18 column | pH 7.4, 25 °C, elution method 2 | higher = more lipophilic | log retention factor | 0.771 |
| c1ccc2c(c1)-c1ccc3ccc4cccc5cc-2c1c3c45 | – | fresh water | 20 °C | – | log K(PDMS-water) | 5.54 ± 0.08 |
| CCc1cccc(C)c1N(C(=O)CCl)C(C)COC (stereo not drawn) | SPME sorption isotherm | PBS | – | – | log Freundlich coefficient | 2.32 |
| CN1CCN(C(=O)Oc2cccc3c2[n+]([O-])c2cc(Cl)c(Cl)cc2[n+]3[O-])CC1 | PAMPA | artificial membrane in PBS | 50 µM, 5 h | – | log effective permeability | -4.97 |
| Clc1ccc(-c2cc(Cl)c(Cl)cc2Cl)cc1Cl | – | fresh water | 20 °C, S100 sampler, 100 µm | – | log K(PDMS-water) | 6.04 ± 0.04 |
| CC[C@H](C)[C@H](NC(C)=O)C(=O)N[C@H]1CSSC[C@@H](C(=O)N[C@H](C(N)=O)[C@@H](C)O)NC(=O)[C@H](CCCNC(=N)N)NC(=O)[C@H](Cc2c[nH]cn2)NC(=O)[C@@](C)(CC)NC(=O)CNC(=O)[C@H](Cc2c[nH]c3ccccc23)NC(=O)[C@H](CC(=O)O)NC(=O)[C@H](CCC(N)=O)NC(=O)[C@H](Cc2c[nH]c3ccccc23)NC(=O)[C@H](C(C)C)NC1=O | isocratic RP-HPLC | C18 column | pH 7.4, 25 °C, elution method 2 | higher = more lipophilic | log retention factor | 0.117 |
| CN(C)C(=O)Oc1cccc2c1[n+]([O-])c1cccc(O)c1[n+]2[O-] | PAMPA | artificial membrane in PBS | 50 µM, 5 h | – | log effective permeability | -5.06 |
| CN1CC[C@]23c4c5ccc(O)c4O[C@H]2[C@@H](O)CC[C@@]3(O)[C@H]1C5 | – | – | – | – | log k amino protonation | 10 |
| Clc1cc(Cl)c(-c2cc(Cl)c(Cl)cc2Cl)cc1Cl | – | fresh water | 20 °C, S100 sampler, 100 µm | – | log K(PDMS-water) | 6.42 ± 0.06 |
| CN1CCN(C(=O)Oc2cccc3c2[n+]([O-])c2cc4ccccc4cc2[n+]3[O-])CC1 | PAMPA | artificial membrane in PBS | 50 µM, 5 h | – | log effective permeability | -5.26 |
| CNC(=O)Oc1cccc2c1OC(C)(C)C2O (stereo not drawn) | SPME sorption isotherm | PBS | – | – | log Freundlich coefficient | 1.49 |
| CC[C@H](C)[C@H](NC(C)=O)C(=O)N[C@H]1CSSC[C@@H](C(=O)N[C@H](C(N)=O)[C@@H](C)O)NC(=O)[C@H](CCCNC(=N)N)NC(=O)[C@H](Cc2cnc[nH]2)NC(=O)[C@H](Cc2cccc3ccccc23)NC(=O)CNC(=O)[C@H](Cc2c[nH]c3ccccc23)NC(=O)[C@H](CC(=O)O)NC(=O)[C@H](CCC(N)=O)NC(=O)[C@H](Cc2c[nH]c3ccccc23)NC(=O)[C@H](C(C)C)NC1=O | isocratic RP-HPLC | C18 column | pH 7.4, 25 °C, elution method 2 | higher = more lipophilic | log retention factor | 0.699 |
| Clc1ccc(-c2ccc(Cl)cc2Cl)cc1 | – | fresh water | 20 °C, S30-2 sampler, 30 µm | – | log K(PDMS-water) | 5.26 ± 0.01 |
| CN1CC[C@]23c4c5ccc(O)c4O[C@H]2[C@@H](O)C=C[C@H]3[C@H]1C5 | – | – | phenolate site | – | log k protonation constant | 9.33 |
| CC(=O)N[C@@H](CC(N)=O)C(=O)N[C@@H](CCCNC(=N)N)C(=O)N[C@@H](CC(C)C)C(=O)N[C@H]1CSSC[C@@H](C(=O)N[C@H](C(N)=O)[C@@H](C)O)NC(=O)[C@H](CCCNC(=N)N)NC(=O)[C@H](Cc2c[nH]cn2)NC(=O)[C@H](Cc2cccc3ccccc23)NC(=O)CNC(=O)[C@H](Cc2c[nH]c3ccccc23)NC(=O)[C@H](CC(=O)O)NC(=O)[C@H](CCC(N)=O)NC(=O)[C@H](Cc2cccc3ccccc23)NC(=O)[C@H](C(C)C)NC1=O | isocratic RP-HPLC | C18 column | pH 7.4, 25 °C, elution method 2 | higher = more lipophilic | log retention factor | 0.863 |

A few entries again:
| Structure (SMILES) | assay | system | setting | how to read | measurement | result |
| --- | --- | --- | --- | --- | --- | --- |
| Clc1cc(Cl)c(-c2cc(Cl)c(Cl)cc2Cl)cc1Cl | – | fresh water | 20 °C, S100 sampler, 100 µm | – | log K(PDMS-water) | 6.42 ± 0.06 |
| CN1CCN(C(=O)Oc2cccc3c2[n+]([O-])c2cc4ccccc4cc2[n+]3[O-])CC1 | PAMPA | artificial membrane in PBS | 50 µM, 5 h | – | log effective permeability | -5.26 |
